{"data": "Experimental data collected from several papers", "cell line": "HaCaT", "note": "Protocols differ between the studies behind these lines."}
{"Structure (SMILES)": "CC(=O)N[C@@H](CC(=O)O)C(=O)N[C@@H](CCC(=O)O)C(=O)N[C@@H](CCC(=O)O)C(=O)N[C@H](C(=O)NCC(=O)N[C@@H](CCC(=O)O)C(=O)N[C@@H](Cc1ccc(O)cc1)C(=O)O)[C@@H](C)O", "conditions": "concentration not given, added: UVA", "measurement": "cells, SA-β-gal positive", "result": "decreased"}
{"Structure (SMILES)": "CCOC(=O)c1cn(CC(c2c[nH]c3cc(Br)ccc23)c2c[nH]c3cc(Br)ccc23)c(C)c1C(=O)OC", "test": "cell growth or viability, MTS", "conditions": "20 µM, 24 h", "measurement": "inhibition", "result": "11.8%"}
{"Structure (SMILES)": "O=C(C[Se]C(=O)c1cccnc1Nc1cccc(C(F)(F)F)c1)Nc1cccc(C(F)(F)F)c1", "test": "cell growth or viability, MTS", "conditions": "48 h", "measurement": "IC50", "result": "28.7 µM"}
{"Structure (SMILES)": "CO[C@@H]1[C@@H](OC(=O)c2ccc(C)[nH]2)[C@@H](O)[C@H](Oc2ccc3c(O)c(NC(=O)c4c[nH]c(C(=O)Nc5c(O)c6ccc(O[C@@H]7OC(C)(C)[C@H](OC)[C@@H](OC(=O)c8ccc(C)[nH]8)[C@H]7O)c(C)c6oc5=O)c4C)c(=O)oc3c2C)OC1(C)C", "test": "cell growth or viability, ATP luminescence", "conditions": "72 h", "measurement": "IC50", "result": "~15 µM"}
{"Structure (SMILES)": "O=C(C[Se]C(=O)c1cc2ccccc2s1)Nc1cccc(C(F)(F)F)c1", "test": "cell growth or viability, MTS", "conditions": "48 h", "measurement": "IC50", "result": "32.1 µM"}
{"Structure (SMILES)": "CCOC(=O)c1c(C(=O)OC)cn(CC(c2cn(C)c3ccccc23)c2cn(C)c3ccccc23)c1C", "test": "cell growth or viability, MTS", "conditions": "20 µM, 24 h", "measurement": "inhibition", "result": "17.8%"}
{"Structure (SMILES)": "[BH3-][P+]1(c2ccccc2)CCCCC1", "test": "cell growth or viability, MTT", "conditions": "72 h", "measurement": "IC50", "result": "> 100 µM"}
{"Structure (SMILES)": "CC(=O)N[C@@H](CC(=O)O)C(=O)N[C@H](C(=O)N[C@@H](CCC(=O)O)C(=O)N[C@H](C(=O)NCC(=O)N[C@@H](CCC(=O)O)C(=O)N[C@H](C(=O)O)C(C)C)[C@@H](C)O)C(C)C", "test": "western blot", "conditions": "concentration not given, added: UVA", "measurement": "AP1 phosphorylation", "result": "inhibited"}
{"Structure (SMILES)": "[BH3-][P+]1(C2CCCCC2)CCCCC1", "test": "cell growth or viability, MTT", "conditions": "72 h", "measurement": "IC50", "result": "96.1 µM"}
{"Structure (SMILES)": "COc1cc(/C=C/C(=O)Oc2cc(C(F)(F)F)ccc2C(F)(F)F)ccc1O", "test": "Western blot, measured: SRD5A1", "conditions": "10 and 15 µM, 24 h", "scale": "relative to: control", "measurement": "protein level", "result": "decreased"}
{"note": "Repeated from above:"}
{"Structure (SMILES)": "CCOC(=O)c1c(C(=O)OC)cn(CC(c2cn(C)c3ccccc23)c2cn(C)c3ccccc23)c1C", "test": "cell growth or viability, MTS", "conditions": "20 µM, 24 h", "measurement": "inhibition", "result": "17.8%"}
